Measurements gathered from unrelated publications.
Every numbered part comes from another study and shows a few of its results, in no order.

Set 1
Target: Histone acetyltransferase KAT6A, winged helix 1, GST fusion (KAT6A, Homo sapiens, UniProt Q92794, residues 1-85)
Technique: protein binding microarray
Form: double-stranded DNA, one strand shown
Matrix: in vitro
Tested at: not given
Notes: 8-mer, flanks averaged, mean of 2 arrays, mostly near background
Relative to: not given
Direction: higher = stronger binding
Target sequence (chain): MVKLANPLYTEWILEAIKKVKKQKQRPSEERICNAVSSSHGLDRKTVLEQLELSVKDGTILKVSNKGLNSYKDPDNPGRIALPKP
Strand | E-score
CTACGCAA | 0.0362
AGAATCAC | 0.0354
CCTACACA | -0.107
CACGGAGC | 0.296
ATTCAAAT | -0.235
CTCGCATC | -0.0393
CTAGTTCA | -0.169
TCGTATCA | -0.119
GTATCATA | -0.0623
AGGGCAAG | -0.208
GTGCCGTA | 0.377
TACAAAAA | -0.000625
AGACGGTA | 0.133
GCAGTCCC | -0.0249
ATACTCAT | -0.132
CAATGGTA | -0.023
AACGCCGC | 0.355
CATCGTCA | -0.163
ACAGCTCA | -0.119
AATCGCCC | 0.0228
AAAGAAAC | -0.0882
ATGTGTCC | 0.0388
ATTATAGG | -0.178
AACTGAAG | -0.142

Set 2
Target: Phosphate system positive regulatory protein PHO4, full length, GST-tagged (PHO4, Saccharomyces cerevisiae, UniProt P07270, residues 1-312)
Technique: competition protein-binding microarray
Form: double-stranded DNA, one strand shown
Matrix: in vitro
Tested at: 2 µM
Notes: whole 60-bp probe, lowest competitor level
Added: Cbf1 competitor, 0.05 µM
Direction: higher = stronger binding
Shared flanks, not repeated: … GTCTTGATTCGCTTGACGCTGCTG
Target sequence (chain): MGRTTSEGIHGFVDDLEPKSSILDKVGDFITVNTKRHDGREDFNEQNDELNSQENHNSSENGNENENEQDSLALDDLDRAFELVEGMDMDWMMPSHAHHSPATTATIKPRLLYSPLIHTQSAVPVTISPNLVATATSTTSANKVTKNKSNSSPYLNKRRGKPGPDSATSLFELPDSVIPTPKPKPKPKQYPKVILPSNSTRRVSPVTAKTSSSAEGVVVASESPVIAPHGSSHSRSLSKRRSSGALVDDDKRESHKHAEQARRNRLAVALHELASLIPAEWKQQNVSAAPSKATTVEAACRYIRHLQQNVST
Strand | fluorescence intensity
CGGGGTTAAGTTTGTAAGGTGGGTGGCTTGCAGCAG | 5110 a.u.
CTAACGAAGGTTTGAATGGTGGGTGACAAGCCAAGT | 3450 a.u.
CTTTCCCGATCTTGAATTGTGGGTGTAGCACATTTG | 4930 a.u.
CTAACGAAGGTTTGCATCGTGGGTGACAAGCCAAGT | 11200 a.u.
CTTTCCCGATCTTCTCACGTGTTTTTAGCACATTTG | 13700 a.u.
CTAACGAAGGTTTGTCACAGCACTTACAAGCCAAGT | 3650 a.u.
CAACACTGGCGGGTCCACGTGTTGGCTAGCCTCACC | 14600 a.u.
CACTGTTCTTTAAAGCACGTGCTTTTGGTACCAACC | 19100 a.u.
CTAACGAAGGTTTGCGCGGTGGGTGACAAGCCAAGT | 3800 a.u.
AAATCCGTCCTGAAACCCGTGCTAAAATCCGTTTAC | 11400 a.u.
AGTTTTCCTTAGCACAGCATGACAATAACCGGGAAT | 5620 a.u.
TGCATTCTGAAGTTACACGTCACTAACCAGCACTAT | 4720 a.u.
CGTCCTAGTGATTGTTATGTGGGTGCCATGAGGAAG | 6680 a.u.
CGGGGTTAAGTTTTTCACGTGCCTTGCTTGCAGCAG | 14500 a.u.
AAAGCGGTAATTTTTCACGTGTCATCACATATCTAT | 14100 a.u.
GCCAAGCCCCTTCATCATGTGCCACTCCACATAACA | 8360 a.u.
CGGGGTTAAGTTTGAATGGTGGGTGGCTTGCAGCAG | 5000 a.u.

Set 3
Target: RNA binding protein fox-1 homolog 2, RRM domain, GST-SBP tag (RBFOX2, Homo sapiens, UniProt O43251-10, residues 100-194)
Technique: RNA Bind-n-Seq
Form: RNA
Matrix: in vitro
Tested at: 365 nM
Notes: natural RNA segment, single round, ends assumed
Relative to: no-protein control
Direction: higher = stronger binding
Shared flanks, not repeated: GGGAGUUCUACAGUCCGACGAUC … UGGAAUUCUCGGGUGCCAA
Residues (chain): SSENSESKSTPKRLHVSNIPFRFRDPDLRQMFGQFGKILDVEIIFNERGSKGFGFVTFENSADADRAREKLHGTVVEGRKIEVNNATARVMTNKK
Strand | RBNS enrichment (R)
AGCAUGGGCCCCAUUGCUUGGGCGGCUGCUGUAUUUUCAUUUACUCUGGCCCUUGGACUAUGGAAACGUGGGAGGGGCAGGGGAGAUGUGGGGAAGUCCAGGACUCCAGG | 0.883
UCAAUGUGCCUUUGCAUAAAGUUCAUUAAAUAAAUAUUGAUGUGGUAUAAAUGCCCAUCAGAUAUGCUAAACUUGGUUUUCAGUUGAAUGAAGUAGAGAAUGUCCUCAGG | 0.506
AAAGCCAGAAGAGCAGCCUCGGGAAAGACAGACGGAAGUCCGGCAACCCAGCUGUAGGCGCUUACACUGAAAUCUAAGUCUGUAUAGUGAACGCCAGCGGCGGCCGACUU | 0.277
UUAAAUUAUUUUAUAGUGCCUGAUAUUUUUAAUAUUAUAAGUUGGAUUCAAAGGGUAUACAGCAUUUUGUUUUCUAGUACCAUUGCUUCACUGGGAGCUCAAAAUUUGCC | 6.93
GACUGGUGGCCUGCAAAUAGCAUCCGUUGAUCUGUGUUAACUGCAUAGGGAGGGCUCUGCAUAGCACCUGCUAUAGCGGUGUCAUGUUGGAUCGCUUUUGUGACUGUUCA | 0.322
ACACCCAUUUCUAUUCAUUUCUGUAUAAAGAACAGUACAGAACAGUAUCGGGAUCUUUGUUGGUUUGACAUUGCUGUUUUGGGUUAAGAUAUUGAGUCUAGGCUCCAAUU | 0.347
UUUAGAAAAGUCAAUUUAAUAAAUUAUCGCCUUUAGCAUUGUAACAGUUUUCAAAAAUAAAGAAAAGUAGGUCCUAAUGAUGUAUUGCUUCCCCGAAAUGGUAUCACACA | 0.805
CUCCAUGGAGACUUGCUCUUCUUCUGCCCUGGACAUGUGGGGAGCUCCCGCUUCCACCCCCACUGUCCAUCCUGACCUUUCCUUGCCCCACUUUCAGAGUCGAAUCAGCU | 0.498
UGCCGCCUGUGUGCUUUGCCCGUGUGCUCCUGCUGUCCCUCUGCCUGGGAUGGCCGCCCUGCUCUGAGACUUGGCCACUCUUGUCCUGGCCAAGUGUUCUGCUUGCAUUU | 0.662
ACCCGCACACAUAAAGCGUCAAGUCUGGAAAACUCAUUCCUCAUACACAGGCCUCCUGUAGUCAUAGCAACAGAGAUGACCUAGGUGCACCCACCUUAGGUGGAGGACUU | 0.572
AAGUCUUGGCAUCUUCCACGUAGUGUUGAGCCUGCAGGUGCACAGAAGUCAAGAACUGAGGUUUGGGAACCUCUGCCUAGAUUUCAGAGAAUGUAUGGAAAUGCAUGUAU | 6.97
AAAACAGUGAAUUAGCUGAAAAGAAAUGGAGAAGUGUCUUGGAGAUUUACUGAAAUAGCUAAUUGUCAGGUGCUUAAGCUUUUGUGCAGUAAGCCUAAAAGUUAGCAGAA | 0.645

Set 4
Target: RING finger protein unkempt homolog, zinc fingers 1-6, GST-SBP tag (UNK, Homo sapiens, UniProt Q9C0B0, residues 30-357)
Chain of UniProt Q9C0B0 (30-357, looked up): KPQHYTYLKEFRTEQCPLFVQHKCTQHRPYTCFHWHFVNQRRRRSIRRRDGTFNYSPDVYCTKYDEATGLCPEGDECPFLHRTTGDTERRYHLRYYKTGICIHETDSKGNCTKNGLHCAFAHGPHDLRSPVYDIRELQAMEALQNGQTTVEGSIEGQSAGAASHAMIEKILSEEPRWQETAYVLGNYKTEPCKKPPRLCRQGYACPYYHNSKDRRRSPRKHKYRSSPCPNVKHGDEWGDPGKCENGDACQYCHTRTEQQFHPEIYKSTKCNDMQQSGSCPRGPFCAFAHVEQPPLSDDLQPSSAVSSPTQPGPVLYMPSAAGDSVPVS
Technique: RNA Bind-n-Seq
Form: RNA
Matrix: in vitro
Tested at: not given
Notes: RNA with constant flanks, human and mouse sites, ends assumed
Relative to: input RNA pool
Direction: higher = stronger binding
Shared flanks, not repeated: GGGAGUUCUACAGUCCGACGAUC … CAACAGAGGAUUGAGCAUCA
Strand | bound/input enrichment [ratio]
GCCAUCCAGGAGCGUGUGGCCCAGGGCCAGACUGGAAACUUCUUGUUUUUUGGCUGCCGCUGGCGGGACCAAGACUUCUACUGGGAGGCUGAGUGGCAGGAGCUGGAGAAGCGGGACUGU | 0.246
UAAUUUUGCUGGAAUUCCUAACUUUUCAAUGACAUUUUUUUUAACUACUAUAUUGAUUGUCCUUUAAAAAAGAAAAGUGCAUAUUUAUCCAAAAUGUGUAUUUCUUAUACGCUUUUCUUU | 1.03
UCCUUCUGUCCAGUUUUCAGCACUAGUCUUACUCAGCUAUCCAUUAUAGUUUUGCCCUUAAGAAGUCAUGAUUAACUUAUGAAAAAAUUAUUUGGGGACAGGAGUGUGAUACCUUCCUUG | 0.41
ACAAAAAAAUGUUGUAGUUGCAGAACUUAGUUUAUAAAAACAAAGAAUGUGUAUUUCUUCAAUAGCCGGGUAUUUGGAUUGUUCUCUUGAUAAUAUUUGAAUGUGACUCUUGGAUUUAAG | 2.49
ACAAUUUAUGAGAUUAUUGAUAAUUCUCAAGGAUUCUACGUUUGUCCAGUGGAGCCCCAAAAUAGAAGCAAGAUGAAUAUUCCAUUCCGCAUUGGCAAUGCCAAAGGAGAUGAUGCUUUA | 2.86
AAAUCGGGCUGAAGCGACUGAGUCCGCGAUGGAGAGAGAAAAGGAACAGUUCCGAAAGCUCUUUAUUGGUGGCUUAAGCUUUGAAACCACAGAAGAAAGUUUGAGAAACUACUAUGAGCA | 0.316
GAAUUCAAUUUAUUUAAACAAAAAAAAUUUUUUAAAGAUUUAUUUAUUUAUUAUAUGUAAGUACACUGUAGCUGUCUUCAGACACCCCAGAAAAGGGCAUCAGAUCUCAUUAUGUAUGUA | 3.1
AGGAUCCUCCGCCUGGACCGCCUUCUGGUCCCUCGAAGCCGGCCCACGGAACCAGCGGAUCCUCAAUCUAGUCCUGUCCCGUUGCCCCCUCCUUUCUCUAUCGUCCCUACUGCGGGGUUC | 0.152
UUGAUGCCUUGGGAGUCAGACAUUUGGGACAUCAACAACCAAAUCUGUACAGUUAAAGAUAUUAAGGCAGAACCUCAGCCACUUUCUCCAGCCUCCUCAAGUUAUUCAGUCUCGUCUCCU | 0.238
AAGCUUUUGAUGUUGAAUGUUUCUAAAUAUUUAAUGGUUUCUUUAAUUUCUUAUGCUAGCAAAAAAAAAACUUCAUAGGAAUUUGUAUUACCAGUAAAAAUUUUUUUUAGGAUGUUGCAU | 1.1
ACUGAAGAAGAUGAUGAUGGGGAAUUAGCACUGUGGUCCCCUGAAGUCAAGAUUGUUGAACUAGUAAAAGAUUGUAAAGGUUUGGGAUUCAGCAUUUUGGAUUACCAGGACCCUUUAGAU | 0.363

Excerpt of the above (set 1):
Strand | E-score
ATTCAAAT | -0.235
ATGTGTCC | 0.0388
AAAGAAAC | -0.0882
AGACGGTA | 0.133
CTCGCATC | -0.0393
ACAGCTCA | -0.119
